{"data": "Measurements pooled from the literature", "organism": "Pseudomonas aeruginosa", "note": "Protocols differ between the studies behind these lines. ± gives the spread as reported."}
{"SMILES": "O=c1cc(-c2ccccc2)oc2cc(O)cc([O][Ga+][O]c3cc(O)cc4oc(-c5ccccc5)cc(=O)c34)c12", "test": "pyoverdine secretion", "setting": "0.08 µM, 20 h", "measurement": "inhibition", "value": "64%"}
{"SMILES": "CCCCCCCCCCCCCC(=O)NCCCC[C@H](N)C(=O)N[C@@H](CCCCN)C(=O)N[C@@H](CCCCN)C(=O)N[C@@H](CCCCN)C(=O)N[C@@H](CCCCN)C(=O)N[C@@H](CCCCN)C(N)=O", "test system": "ATCC 27853", "measurement": "MBC", "value": "128 µg/mL"}
{"SMILES": "CC[P+](CC)(CC)[Au-][S][C@@H]1O[C@H](COC(C)=O)[C@@H](O[C@H]2O[C@H](COC(C)=O)[C@@H](OC(C)=O)[C@H](OC(C)=O)[C@H]2OC(C)=O)[C@H](OC(C)=O)[C@H]1OC(C)=O", "test system": "NCTC 13437", "setting": "concentration not given", "how to read": "relative to: auranofin", "measurement": "fold activity enhancement", "value": "2 to 4"}
{"SMILES": "CC(=O)N[C@H](CCCCN)C(=O)N[C@H](CC(C)C)C(=O)N[C@H](CCCCN)C(=O)N[C@H](CO)C(=O)N[C@H](CC(C)C)C(=O)N[C@H](CC(C)C)C(=O)N[C@H](CCCCN)C(=O)N[C@@H](C(=O)N[C@H](CC(C)C)C(=O)N[C@H](CO)C(=O)N[C@H](CCCCN)C(=O)N[C@H](C)C(=O)N[C@H](CCCCN)C(=O)N[C@H](CCCCN)C(=O)N[C@H](CCCCN)C(=O)N[C@H](CC(C)C)C(=O)N[C@H](CC(C)C)C(=O)N[C@H](CCCCN)C(=O)N[C@@H](C(=O)N[C@H](C)C(=O)N[C@H](CC(C)C)C(=O)N[C@H](CCCCN)C(=O)N[C@H](C)C(=O)N[C@H](CC(C)C)C(=O)N[C@H](CO)C(=O)N[C@H](CCCCN)C(N)=O)[C@H](C)O)[C@H](C)O", "test system": "six isolates", "how to read": "relative to: HC50 over geometric mean MIC", "measurement": "therapeutic index", "value": 170}
{"SMILES": "CCc1ccc(NC(=O)CSc2nc3ccccc3c(=O)n2-c2ccc(S(N)(=O)=O)cc2)cc1", "test": "microbial growth, well diffusion", "test system": "ATCC27853", "setting": "500 µg/mL, 24 h", "measurement": "inhibition zone", "value": "16 mm"}
{"SMILES": "Cc1c2c(cc3oc(=O)cc(-c4ccc(Cl)cc4)c13)C(=O)c1cccc(O)c1C2=O", "test system": "MTCC 2453", "setting": "100 µg/disc", "measurement": "zone of inhibition", "value": "8 mm"}
{"SMILES": "CCCCCCCCCc1nc2cc(Cl)ccc2c(=O)n1CCCN", "test": "bactericidal", "test system": "PAO1, LB", "setting": "50 µM, 3 h", "measurement": "viable count", "value": "increased"}
{"SMILES": "CNC1=C([N+](=O)[O-])C2(C(=O)Nc3ccc([N+](=O)[O-])cc32)C2=C(CCCC2=O)O1 (centres unmarked)", "test": "growth", "test system": "MTCC 2453", "setting": "250 µg/mL, 24 h", "measurement": "inhibition", "value": "59%"}
{"SMILES": "CC(=O)[O-].O.O.O.O.[Mn+2].[O-]c1ccc(Br)cc1C=NCCN1CCOCC1", "setting": "20 µL of 100 µM per disc", "measurement": "inhibition zone diameter", "value": "15 mm"}
{"SMILES": "Cc1cccc2c3c(ccc12)C1=C(C(=O)C3=O)[C@@H](C)CO1", "test": "cytotoxicity", "test system": "J774.A1, PAO1", "setting": "100 µM, 5 h, serum-free medium", "measurement": "inhibition", "value": "< 70%"}
{"SMILES": "CCOC(=O)c1cnc(N/N=C/c2c(-c3ccc(OC)cc3)nc3ncccn23)s1", "test": "microbial growth, well diffusion", "test system": "ATCC27853", "setting": "100 µg/mL", "measurement": "inhibition zone", "value": "16 mm"}
{"SMILES": "COc1ccc(-c2ccn(CC[C@](C)(C(=O)NO)S(C)(=O)=O)c(=O)c2)c(F)c1", "test system": "PA-1955, mice acute septicaemia model", "setting": "subcutaneous", "measurement": "ED50", "value": "55.9 mg/kg"}
{"SMILES": "CC(=NNC(=N)N)c1nnn(-c2ccc(C#CC3(O)CCCCC3)cc2)c1C", "test": "microbial killing", "test system": "ATCC10145", "measurement": "MBC", "value": "62.5 µg/mL"}
{"SMILES": "COc1cc(NC(=O)CSc2nc3ccccc3c(=O)n2-c2ccc(S(N)(=O)=O)cc2)cc(OC)c1", "test": "microbial growth, well diffusion", "test system": "ATCC27853", "setting": "500 µg/mL, 24 h", "measurement": "inhibition zone", "value": "20 mm"}
{"SMILES": "CCCCCCCCCC(=O)NCCCC[C@@H](NC(=O)[C@@H](CC(C)C)NC(=O)[C@@H](CCCCN)NC(=O)[C@@H](CCCCNC(=O)[C@@H](CC(C)C)NC(=O)[C@@H](CCN)NC(=O)[C@@H](CCCCNC(=O)[C@@H](Cc1ccccc1)NC(=O)[C@H](N)CCCN)NC(=O)[C@@H](Cc1ccccc1)NC(=O)[C@H](N)CCCN)NC(=O)[C@@H](CC(C)C)NC(=O)[C@@H](CCN)NC(=O)[C@@H](CCCCNC(=O)[C@@H](Cc1ccccc1)NC(=O)[C@H](N)CCCN)NC(=O)[C@@H](Cc1ccccc1)NC(=O)[C@H](N)CCCN)C(N)=O", "test": "biofilm formation", "test system": "PAO1", "setting": "24 h, 37 °C", "measurement": "MBIC", "value": "8 µg/mL"}
{"SMILES": "S=c1n(CN2CCN(Cc3ccccc3)CC2)nc(C23CC4CC(CC(C4)C2)C3)n1-c1ccccc1", "test system": "IFO 3448", "setting": "200 µg/disc, 24 h, 37 °C", "measurement": "inhibition zone diameter", "value": "< 10 mm"}
{"SMILES": "CC[C@@H](C)[C@@H](NC(=O)[C@@H](C)NC(=O)[C@@H](CCCCN)NC(=O)[C@@H](CC(C)C)NC(=O)[C@@H](C)NC(=O)[C@H](NC(=O)[C@@H](CCCCN)NC(=O)[C@@H](CC(C)C)NC(=O)[C@H](NC(=O)[C@@H](CCCCN)NC(=O)[C@@H](CCCCN)NC(=O)[C@@H](CCCCN)NC(=O)[C@@H](C)NC(=O)[C@@H](CCCCN)NC(=O)[C@@H](CO)NC(=O)[C@@H](Cc1ccccc1)NC(=O)[C@H](NC(=O)[C@@H](CCCCN)NC(=O)[C@@H](CC(C)C)NC(=O)[C@@H](Cc1ccccc1)NC(=O)[C@@H](CO)NC(=O)[C@@H](CCCCN)NC(=O)[C@@H](Cc1c[nH]c2ccccc12)NC(=O)[C@@H](CCCCN)NC(C)=O)[C@H](C)O)C(C)C)[C@H](C)O)C(=O)N[C@H](CO)C(=O)N[C@H](CCCCN)C(N)=O", "test system": "six isolates", "measurement": "MIC geometric mean", "value": "1.6 µM"}
{"SMILES": "c1ccc(-c2ccc(CNCCNCc3ccc(-c4ccccn4)cc3)cc2)nc1", "test system": "PA103, mouse pneumonia model", "setting": "intraperitoneal, 100 µg, 18 h", "measurement": "lavage cell count", "value": "decreased"}
{"SMILES": "O=c1cc(-c2ccc(O)cc2)oc2cc(O)cc([O][Ga+][O]c3cc(O)cc4oc(-c5ccc(O)cc5)cc(=O)c34)c12", "test": "bacterial viability", "measurement": "IC50", "value": "3.59 µg/mL"}
{"SMILES": "CC[C@H](C)[C@H](NC(=O)[C@H](Cc1c[nH]cn1)NC(=O)[C@H](CCCCNC(=O)[C@@H](NC(=O)[C@H](CCCCN)NC(=O)CSC[C@H](NC(=O)[C@H](Cc1ccccc1)NC(=O)[C@H](CCCCNC(=O)[C@H](CC(C)C)NC(=O)[C@@H]1CCCN1C(=O)[C@H](CCCCN)NC(C)=O)NC(=O)[C@H](CC(C)C)NC(=O)[C@@H]1CCCN1C(=O)[C@H](CCCCN)NC(C)=O)C(N)=O)[C@@H](C)CC)NC(=O)[C@@H](NC(=O)[C@H](CCCCN)NC(=O)CSC[C@H](NC(=O)[C@H](Cc1ccccc1)NC(=O)[C@H](CCCCNC(=O)[C@H](CC(C)C)NC(=O)[C@@H]1CCCN1C(=O)[C@H](CCCCN)NC(C)=O)NC(=O)[C@H](CC(C)C)NC(=O)[C@@H]1CCCN1C(=O)[C@H](CCCCN)NC(C)=O)C(N)=O)[C@@H](C)CC)C(N)=O", "test system": "PAO1", "setting": "50 µM, 24 h", "measurement": "biofilm dispersal", "value": "increased"}
{"SMILES": "Oc1ccc(C(F)(F)F)cc1-c1nc2c(Cl)cc(Cl)cc2[nH]1", "test": "colistin potentiator", "test system": "TRPA 161, colistin-resistant", "setting": "5 µM", "measurement": "MIC of colistin", "value": "2 µg/mL"}
{"SMILES": "CC(C)C[C@@H]1NC(=O)[C@H](CC(C)C)NC(=O)[C@H](CC(C)C)NC(=O)[C@@H]2CSCC(=O)N[C@@H](CCCCN)C(=O)N[C@@H](CCCCN)C(=O)N[C@@H](CCCCN)C(=O)NCCCC[C@H](NC(=O)[C@H](CCCCN)NC(=O)[C@H](CCCCN)NC(=O)[C@H](CCCCN)NC(=O)CSC[C@@H](C(=O)N[C@@H](CCCCN)C(N)=O)NC1=O)C(=O)N[C@@H](CCCCN)C(=O)N[C@@H](CC(C)C)C(=O)N[C@@H](CC(C)C)C(=O)N2", "test": "WST-8", "test system": "PAO1", "setting": "32 µg/mL, 24 h, 37 °C, preformed biofilm", "measurement": "biofilm dispersal", "value": "0%"}
{"SMILES": "COc1ccccc1N1CCN(Cn2nc(C34CC5CC(CC(C5)C3)C4)n(-c3ccccc3)c2=S)CC1", "test system": "IFO 3448", "setting": "200 µg/disc, 24 h, 37 °C", "measurement": "inhibition zone diameter", "value": "12 mm"}
{"SMILES": "O=C(CCc1ccc(Br)cc1)N[C@H]1CCOC1=O", "test": "elastin-Congo red", "test system": "PAO1 wild type", "setting": "100 µM", "measurement": "elastase inhibition", "value": "< 25%"}
{"SMILES": "C=C1CC(OC(=O)C(C)(O)CCl)C2C(=C)C(=O)OC2C2C1CC(O)C2(O)CCl (centres unmarked)", "setting": "concentration not given", "measurement": "inhibition zone", "value": "8 ± 1.2 mm"}
{"SMILES": "Cc1cc(O)cc2c1C(=O)c1c(cc3oc(=O)cc(-c4ccc(Cl)cc4)c3c1O)C2=O", "test system": "MTCC 2453", "setting": "100 µg/disc", "measurement": "zone of inhibition", "value": "8 mm"}
{"SMILES": "CC[C@@H](C)[C@@H](NC(=O)[C@@H](Cc1c[nH]c2ccccc12)NC(=O)[C@@H](CCCNC(=N)N)NC(=O)[C@H](N)CCCNC(=N)N)C(=O)N[C@H](CCCNC(=N)N)C(=O)N[C@@H](C(=O)N[C@H](C)C(=O)N[C@@H](C(=O)N[C@@H](C(=O)N[C@H](CC(C)C)C(=O)N[C@H](CCCNC(=N)N)C(=O)N[C@@H](C(N)=O)C(C)C)[C@H](C)CC)C(C)C)C(C)C", "test system": "PAO1, Galleria mellonella larvae", "setting": "proleg injection, 20 µg per larva, 48 h post infection, 37 °C, dosed 1 h after infection", "measurement": "survival", "value": "18 ± 7%"}
{"SMILES": "CCCCCCCCCCCCCCC(=O)N[C@@H](CCCCN)C(=O)N[C@@H](CCCCN)C(=O)N[C@@H](CCCCN)C(=O)N[C@@H](CCCCN)C(=O)N[C@@H](CCCCN)C(N)=O", "test system": "ATCC 27853", "measurement": "MBC", "value": "128 µg/mL"}
{"SMILES": "CC[C@@H](C)[C@@H](NC(=O)[C@@H](C)NC(=O)[C@@H](CCCCN)NC(=O)[C@@H](CC(C)C)NC(=O)[C@@H](C)NC(=O)[C@H](NC(=O)[C@@H](Cc1c[nH]cn1)NC(=O)[C@@H](CC(C)C)NC(=O)[C@H](NC(=O)[C@H](NC(=O)[C@@H](CCCCN)NC(=O)[C@H](NC(=O)[C@@H](C)NC(=O)[C@@H](CO)NC(=O)[C@@H](CCCCN)NC(=O)[C@@H](Cc1ccccc1)NC(=O)[C@H](NC(=O)[C@@H](CCCCN)NC(=O)[C@@H](CC(C)C)NC(=O)[C@@H](Cc1ccccc1)NC(=O)[C@@H](CO)NC(=O)[C@@H](CCCCN)NC(=O)[C@@H](Cc1c[nH]c2ccccc12)NC(=O)[C@@H](CCCCN)NC(C)=O)[C@H](C)O)C(C)C)[C@H](C)O)C(C)C)[C@H](C)O)C(=O)N[C@H](CO)C(=O)N[C@H](CO)C(N)=O", "test system": "six isolates", "how to read": "relative to: HC50 over geometric mean MIC", "measurement": "therapeutic index", "value": 1}
{"note": "Excerpt of the above:"}
{"SMILES": "CCCCCCCCCc1nc2cc(Cl)ccc2c(=O)n1CCCN", "test": "bactericidal", "test system": "PAO1, LB", "setting": "50 µM, 3 h", "measurement": "viable count", "value": "increased"}
{"SMILES": "CNC1=C([N+](=O)[O-])C2(C(=O)Nc3ccc([N+](=O)[O-])cc32)C2=C(CCCC2=O)O1 (centres unmarked)", "test": "growth", "test system": "MTCC 2453", "setting": "250 µg/mL, 24 h", "measurement": "inhibition", "value": "59%"}
{"SMILES": "CC(=O)[O-].O.O.O.O.[Mn+2].[O-]c1ccc(Br)cc1C=NCCN1CCOCC1", "setting": "20 µL of 100 µM per disc", "measurement": "inhibition zone diameter", "value": "15 mm"}
